Assay results gathered from unrelated publications.
Protocols differ between the studies behind these lines. Numbers after ± are the reported error.

SMILES | cell line | assay | conditions | how to read | endpoint | result
CN(C)c1cc2ccccc2c(N)n1 | LX-2 | western blot | concentration not given, 6 h pre-treatment, together with: TGF-β1 5 ng/mL for 24 h | – | α-SMA protein level | inhibited
O=Cc1c(O)ccc2ccccc12 | HUVEC | RNA sequencing, item: HIST1H2AC | 75 µM, 24 h | baseline: DMSO | log2 fold change | 2.7
COc1cc(CNC(=O)C[C@H](C)CCC=C(C)C)ccc1OCc1cn(-c2ccccc2F)nn1 | IGROV-1 ovarian cancer cells | SRB | 10 µM, 48 h | – | growth percent | 81.9%
O=C1Nc2ccc(Cl)cc2C1=Cc1c(Cl)[nH]c2c1ccc1ccccc12 | ovarian cancer subpanel of NCI-60 | – | 48 h | – | TGI | 11.2 µM
CC1(C)C=Cc2c(O)cc(/C=C/c3ccc(O)cc3O)cc2O1 | SAS | cell growth, MTT | – | baseline: IC50 HaCaT over IC50 SAS | selectivity ratio | 3.6
CC(=O)OC[C@H]1O[C@@H](Sc2sc(C(=O)c3ccc(Br)cc3)c(N)c2-c2nc3ccccc3s2)[C@H](OC(C)=O)[C@@H](OC(C)=O)[C@H]1OC(C)=O | OVCAR-8 | SRB | 10 µM, 48 h | baseline: untreated | growth | 80.3%
CC(C)(C)C(=O)Nc1ccc2[nH]c(CN3CCC(N(CCCN4CCOCC4)CC4OC(n5cnc6c(N)ncnc65)C(O)C4O)CC3)nc2c1 (stereo not drawn) | H460 wild type or R231Q cells | wound healing | 2.5 and 5 µM, 72 h | baseline: untreated | migrating cells | decreased
O=C(OCc1cccc(O)c1O)c1ccc(O)c(CO)c1 | mouse aortic smooth muscle cells | lucigenin chemiluminescence | dose not given, together with: angiotensin II 24 h | – | superoxide production | inhibited
O=C(O)CCC(NP(=O)(O)OCCC[C@@H](NC(=O)CC[C@H](NC(=O)CCCCCNC(=O)c1ccc([18F])cc1)C(=O)O)C(=O)O)C(=O)O (stereo partly drawn) | CWR22Rv1 | – | concentration not given, 4 h | – | cell uptake | 1.32 ± 0.52%
COc1cc(C(=O)c2[nH]c(N)nc2-c2cccs2)cc(OC)c1OC | A549 cells | scratch wound healing | 100 nM | – | migration rate | 1.6 ± 0.3 µm/h
FC(F)(F)c1ccnc(-c2cc(C(F)(F)F)ccn2)c1.FC(F)(F)c1ccnc(-c2cc(C(F)(F)F)ccn2)c1.[Cl-].[Cl-].[Ru+2].c1csc(-c2ccc(-c3ccc(-c4ccc(-c5nc6c7cccnc7c7ncccc7c6[nH]5)s4)s3)s2)c1 | SK-MEL-28 | cell viability | normoxia, together with: green light 523 nm, 100 J/cm2 | baseline: dark EC50 over light EC50 | phototherapeutic index | 815
C#CCN(CC(=O)O[C@H]1[C@H](C)O[C@@H](O[C@H]2[C@H](N(C)C)[C@@H](O)[C@H](O[C@H]3[C@@H](CC=O)C[C@@H](C)[C@@H](O[C@H]4CC[C@H](N(C)C)[C@@H](C)O4)/C=C/C=C/C[C@@H](C)OC(=O)C[C@@H](O)[C@@H]3OC)O[C@@H]2C)C[C@@]1(C)O)Cc1ccc(C(F)(F)F)cc1 | GES-1 and HGC-27 | cell growth, CCK-8 | 72 h | baseline: IC50 GES-1 over HGC-27 | selectivity index | 3.88
Cc1nn(C)c(O)c1-c1nc2cc(Cl)c(Cl)cc2[nH]c1=O | TF-1 | caspase 3/7 | IC50, 72 h | – | apoptotic cells | ~70%
Cc1ccc(NC(=O)c2c(C)oc3ccc(O)cc23)cc1 | L-363 | Western blot | 10 µM, 24 h | – | MYC protein level | inactive
COc1ccc(CC2COC(=O)C2Cc2ccc3c(c2)OCO3)cc1OC (mixture of isomers) | A2780cis | item: multi-caspase | 3.25 µM, 72 h | baseline: untreated | caspase-positive cells | increased
Cc1c(C)c(C)[c-](C)c1C.O=C1c2cccc[n+]2[Ir]([Cl])[N]1CCCCCCCCCC[P+](c1ccccc1)(c1ccccc1)c1ccccc1.[Br-] | SH-SY5Y | DCFDA | concentration not given, together with: MPP+ | baseline: untreated | ROS level | 3.4 fold
CN1CCN(c2ccc(Nc3ncc(Cl)c(Nc4ccccc4P(C)(C)=O)n3)cc2Br)CC1 | PC9-OR | western blot | concentration not given | – | AKT phosphorylation | inhibited
OC(CN1CCNCC1)Cn1c2ccc(Br)cc2c2cc(Br)ccc21 (stereo not drawn) | wild-type MEF | apoptosis, inhibitor | 2 µM, 8 h, together with: TNFα and cycloheximide | – | caspase-3/7 activity | inhibited
Cc1c(C)n(-c2c(C(C)C)cccc2C(C)C)c(=[Se])n1-c1c(C(C)C)cccc1C(C)C.[Cl][Ag] | LoVo MDR | MTT | – | baseline: LoVo MDR over LoVo | resistance factor | 0.4
COc1cc(CNC(=O)C[C@H](C)CCC=C(C)C)ccc1OCc1cn(-c2ccc(Cl)cc2Cl)nn1 | MOLT-4 leukaemia cells | SRB | 10 µM, 48 h | – | growth percent | 84%
COc1ccc([C@@H]2CC(=O)c3c(O)cc(O[C@@H]4O[C@H](CO[C@@H]5O[C@@H](C)[C@H](O)[C@@H](O)[C@H]5O)[C@@H](O)[C@H](O)[C@H]4O)cc3O2)cc1O | A549 | trypan blue exclusion | 50 µg/mL, 48 h | – | cell count | 18300 ± 522
O=C1CCC(N2C(=O)c3ccc(N4CCC(C(=O)N5CCC(CCN6CCC(CNC(=O)c7cccc(-c8noc(C(F)(F)F)n8)c7)(c7nc(-c8ccccc8)cs7)CC6)CC5)CC4)cc3C2=O)C(=O)N1 (stereo not drawn) | DHL6 | RNA sequencing | 3 µM, 12 h | – | upregulated genes | 442 genes
C(=C/c1ccccc1)/c1ccccc1 | MOLT-3 | apoptosis, item: caspase-3 activity | 24 h, lowest dose with significant induction | baseline: vehicle | lowest effective concentration | 10 µM
O=C1c2c(O)cc(O)cc2-c2c(-c3ccc(O)cc3)oc3cc(O)cc1c23 | MCF7 cells | label-free MS proteomics | 10 µM | – | number of proteins affected | < 200

SMILES | cell line | assay | conditions | how to read | endpoint | result
COc1ccc2c(c1)c1c(C)c3cnccc3c(C)c1n2CCCN1CCN(C)CC1 | SK-N-SH | MultiTox-Fluor | IC50, 48 h | – | loss of cell viability | > 75%
O=C(c1ccc2ccccc2c1)c1cn(-c2ccccc2)nc1C1=Nn2c(Cc3nnc4n3N=C(c3nn(-c5ccccc5)cc3C(=O)c3ccc5ccccc5c3)CS4)nnc2SC1 | MCF7 cells | annexin V/PI flow cytometry | IC50, 48 h | – | early apoptotic cells | 19.8%
COc1cc(CNC(=O)C[C@H](C)CCC=C(C)C)ccc1OCc1cn(-c2ccc(Br)cc2)nn1 | MOLT-4 leukaemia cells | SRB | 10 µM, 48 h | – | growth percent | 70%
O=C(CCCCCCC(=O)Nc1ccccc1)NO | HEK293 | cell growth or viability, XTT | 72 h | – | GI50 | 0.08 µM
COc1cc(CNC(=O)C[C@H](C)CCC=C(C)C)ccc1OCc1cn(-c2ccccc2Cl)nn1 | MDA-MB-231/ATCC | SRB | 10 µM, 48 h | – | growth | 72.6%
Cc1nn(-c2ccc(S(=O)(=O)N[C@H](CO)CC(C)C)cc2)c2nn3nnnc3nc12 | PC-3 | AO/EB staining | 2 µM, 24 h | – | apoptotic cells | 14 ± 1.41%
CCCCc1ccc(C(=O)O[C@H]2[C@H](C)O[C@@H](O[C@H]3[C@H](N(C)C)[C@@H](O)[C@H](O[C@H]4[C@@H](CC=O)C[C@@H](C)[C@@H](O[C@H]5CC[C@H](N(C)C)[C@@H](C)O5)/C=C/C=C/C[C@@H](C)OC(=O)C[C@@H](O)[C@@H]4OC)O[C@@H]3C)C[C@@]2(C)O)cc1 | GES-1 and HGC-27 | cell growth, CCK-8 | 72 h | baseline: IC50 GES-1 over HGC-27 | selectivity index | 1.66
CCN1/C(=C/C=C2\CCCC(/C=C/C3=[N+](CC)c4ccccc4C3(C)C)=C2NCCCCCCCCN2CCC(Nc3nc4ccccc4n3Cc3ccc(F)cc3)CC2)C(C)(C)c2ccccc21 | U87 | western blot, item: CDK2 | concentration not given, 24 h | – | protein level | decreased
C=C1C(=O)OC2C1CCC1(C)CC1CCC1(C)OC21 (stereo not drawn) | TEX | CellROX Green flow cytometry | 25 µM, 30 min | baseline: untreated | ROS level | 1.6 fold
COc1cc(CNC(=O)C[C@H](C)CCC=C(C)C)ccc1OCc1cn(-c2cccc([N+](=O)[O-])c2)nn1 | IGROV-1 ovarian cancer cells | SRB | 10 µM, 48 h | – | growth percent | 107%
COc1ccc(/C=C/C2=[N+]3C(=C(CO)c4c(C)cc(/C=C/c5ccc(OC)cc5)n4[B-]3(F)F)C(C)=C2)cc1 | RPE-1 | resazurin | together with: 645 nm light | baseline: dark over light IC50 | phototoxicity index | 500 ± 500
COc1cccc(Cc2cc(CCC(=O)NCCNc3cccc4c(S(=O)(=O)O)cccc34)nn(CC(=O)Nc3ccc(Br)cc3)c2=O)c1 | human neutrophils | calcium flux | – | baseline: antagonist IC50 over agonist EC50 | potency ratio | 10 fold
CCC/C(=C\C1=C(OC)C(=O)c2ccccc2C1=O)C(=O)NOC | NF90-8 cells | HIF1α reporter gene, luciferase reporter | 24 h, 1% oxygen hypoxia | – | EC50 | 8.1 ± 0.53 µM
COc1cc(CNC(=O)C[C@H](C)CCC=C(C)C)ccc1OCc1cn(-c2cccc(Cl)c2)nn1 | MCF7 breast cancer cells | SRB | 10 µM, 48 h | – | growth percent | 63.3%
Cc1ccc2nc(-c3ccc(F)c(F)c3)c(CN3CCN(c4ccccc4)CC3)n2c1 | CRL8155 | cell growth or viability | 48 h | – | EC50 | > 50 µM
COc1ccc([C@@H]2CC(=O)c3c(O)cc(O[C@@H]4O[C@H](CO[C@@H]5O[C@@H](C)[C@H](O)[C@@H](O)[C@H]5O)[C@@H](O[C@H]5O[C@H](CO)[C@@H](O)[C@H](O)[C@H]5O)[C@H](O)[C@H]4O)cc3O2)cc1O | A549 | Matrigel Transwell invasion | 100 µg/mL, 24 h | – | invasion | 31.6 ± 5.7%
CN(C)c1cccc2c(S(=O)(=O)NCCCCCC(=O)NO)cccc12 | PC-3 | Western blot | concentration not given | – | histone H3 acetylation | increased
O=C1OCC2=C1C(c1cccc(Br)c1)C1=C(N2)C(=O)c2ccccc2C1=O (stereo not drawn) | SK-LU-1 cells | annexin V/PI | 0.32 µM, 24 h | – | total apoptotic cells | 21.1%
COc1cc(CNC(=O)C[C@H](C)CCC=C(C)C)ccc1O | IGROV-1 ovarian cancer cells | SRB | 10 µM, 48 h | – | growth percent | 89.1%
CCOC(=O)CCC(NC(=O)C(NC(=O)c1c(C)nn(-c2cc[nH]c(=O)c2)c1C)C(C)C)C(=O)OCC (stereo not drawn) | human PBMCs | – | 10 µM, 24 h, with or without LPS | – | IL-12p70 secretion | increased
CC(Cc1ccc(Cl)cc1)=C(c1ccc(Cl)cc1)c1ccc(OCCN(C)C)cc1 | SR | cell growth or viability | – | – | GI50 | 0.99 µM
COc1cc(CNC(=O)C[C@H](C)CCC=C(C)C)ccc1OCc1cn(-c2ccccc2[N+](=O)[O-])nn1 | MCF7 breast cancer cells | SRB | 10 µM, 48 h | – | growth percent | 50.5%
CC/C=C\C/C=C\C/C=C\C/C=C\C/C=C\C/C=C\CCC(=O)Nc1ccn(C2OC(CO)C(O)C2(F)F)c(=O)n1 (stereo not drawn) | OVCAR-8 | NCI60 screen | – | – | TGI | 11.4 µM
Cc1nccn1-c1nc(NN=Cc2c[nH]c3ccccc23)nc(Nc2ccc(Br)cc2)n1 | A549 and SK-BR-3 | autophagy, Western blot | 3 µM, 20 h | – | LC3-II level | increased

A few entries again:
SMILES | cell line | assay | conditions | how to read | endpoint | result
Cc1c(C)n(-c2c(C(C)C)cccc2C(C)C)c(=[Se])n1-c1c(C(C)C)cccc1C(C)C.[Cl][Ag] | LoVo MDR | MTT | – | baseline: LoVo MDR over LoVo | resistance factor | 0.4
COc1cc(CNC(=O)C[C@H](C)CCC=C(C)C)ccc1OCc1cn(-c2ccc(Cl)cc2Cl)nn1 | MOLT-4 leukaemia cells | SRB | 10 µM, 48 h | – | growth percent | 84%
COc1ccc([C@@H]2CC(=O)c3c(O)cc(O[C@@H]4O[C@H](CO[C@@H]5O[C@@H](C)[C@H](O)[C@@H](O)[C@H]5O)[C@@H](O)[C@H](O)[C@H]4O)cc3O2)cc1O | A549 | trypan blue exclusion | 50 µg/mL, 48 h | – | cell count | 18300 ± 522
O=C1CCC(N2C(=O)c3ccc(N4CCC(C(=O)N5CCC(CCN6CCC(CNC(=O)c7cccc(-c8noc(C(F)(F)F)n8)c7)(c7nc(-c8ccccc8)cs7)CC6)CC5)CC4)cc3C2=O)C(=O)N1 (stereo not drawn) | DHL6 | RNA sequencing | 3 µM, 12 h | – | upregulated genes | 442 genes
